Values quoted from earlier work that unrelated publications cite.
Each line is one published result; not all experiments were run side by side. Numbers after ± are the reported error.
Sequence of UniProt Q6P3R8 (whole entry, looked up): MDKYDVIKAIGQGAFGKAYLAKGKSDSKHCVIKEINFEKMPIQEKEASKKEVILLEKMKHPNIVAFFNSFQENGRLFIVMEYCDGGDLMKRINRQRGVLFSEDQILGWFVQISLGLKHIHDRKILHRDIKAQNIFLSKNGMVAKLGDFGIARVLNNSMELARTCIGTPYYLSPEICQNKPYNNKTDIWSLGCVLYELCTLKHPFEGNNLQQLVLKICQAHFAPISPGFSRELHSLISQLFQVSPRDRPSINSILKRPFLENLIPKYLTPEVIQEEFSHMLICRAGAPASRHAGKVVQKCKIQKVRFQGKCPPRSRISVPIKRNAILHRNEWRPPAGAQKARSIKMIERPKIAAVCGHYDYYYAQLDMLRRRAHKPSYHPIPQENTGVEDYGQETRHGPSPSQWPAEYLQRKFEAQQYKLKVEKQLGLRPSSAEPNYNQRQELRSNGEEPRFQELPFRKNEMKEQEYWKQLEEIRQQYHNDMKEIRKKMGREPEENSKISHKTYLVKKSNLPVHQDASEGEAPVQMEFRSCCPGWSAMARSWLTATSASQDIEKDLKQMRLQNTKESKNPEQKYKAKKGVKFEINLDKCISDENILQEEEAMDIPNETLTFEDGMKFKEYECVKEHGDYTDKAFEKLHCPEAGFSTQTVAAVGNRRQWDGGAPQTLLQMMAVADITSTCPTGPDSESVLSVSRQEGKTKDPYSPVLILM

CNS(=O)(=O)Nc1nccc(Cc2c(C)c3ccc(Oc4ncccn4)cc3oc2=O)c1F  apparent clearance (CL/F) (human; oral, single dose): 6 mL/min
CCN1CCN(Cc2ccc(Nc3ncc(F)c(-c4cc(F)c5nc(C)n(C(C)C)c5c4)n3)nc2)CC1  apparent clearance CL/F (human; oral, geometric mean): 38.3 L/h
Cn1ncnc1[C@H]1c2n[nH]c(=O)c3cc(F)cc(c23)N[C@@H]1c1ccc(F)cc1  apparent clearance CLt/Ft (human, advanced cancer; monotherapy): 6.37 L/h
Nc1cc(C(F)(F)F)c(-c2nc(N3CCOCC3)nc(N3CCOCC3)n2)cn1  remaining activity (Serine/threonine-protein kinase Nek5 (NEK5, Homo sapiens, UniProt Q6P3R8); enzyme activity; 10 µM; relative to: untreated): 100%
Cn1ncnc1[C@H]1c2n[nH]c(=O)c3cc(F)cc(c23)N[C@@H]1c1ccc(F)cc1  apparent clearance CL/F (human adults; 1000 µg/day): 5.2 ± 1.4 L/h
O=C(c1cc(Cc2n[nH]c(=O)c3ccccc23)ccc1F)N1CCN(C(=O)C2CC2)CC1  apparent volume of distribution (non-compartmental analysis; human, fasted; oral, 300 mg tablet): 1.34 L/kg
CO[C@@H](C)Cn1c(=O)n(C)c2cnc3ccc(-c4cncc(C(C)(C)O)c4)cc3c21  apparent volume Vz/F (human; 20 mg and 325 mg, day 1, mean): 198 L
CNC(=O)c1ccc(N2C(=S)N(c3ccc(C#N)c(C(F)(F)F)c3)C(=O)C2(C)C)cc1F  apparent central volume Vce/Fe (human; dose not given, monotherapy): 38.5 L
CC1(C)CCC(CN2CCN(c3ccc(C(=O)NS(=O)(=O)c4ccc(NCC5CCOCC5)c([N+](=O)[O-])c4)c(Oc4cnc5[nH]ccc5c4)c3)CC2)=C(c2ccc(Cl)cc2)C1  apparent clearance (CL/F) (legacy population PK model; human): 310 mL/min

Some of these lines once more:
CCN1CCN(Cc2ccc(Nc3ncc(F)c(-c4cc(F)c5nc(C)n(C(C)C)c5c4)n3)nc2)CC1  apparent clearance CL/F (human; oral, geometric mean): 38.3 L/h
